Measured values collected from several papers.
Lines come from different studies, so protocols differ. Numbers after ± are the reported error.

Structure (SMILES) | test | system | setting | scale | measurement | value
S=c1n(CN2CCN(c3ccccn3)CC2)nc(C23CC4CC(CC(C4)C2)C3)n1-c1ccccc1 | paw oedema | rat | intraperitoneal, 40 mg/kg | – | inhibition in vivo | 38.9%
CC(=O)N[C@@H](CC(N)=O)C(=O)NCC(=O)N[C@@H](C)C(=O)N[C@@H](C)C(N)=O | 1H NMR | sodium phosphate buffer 50 mM | pH 6.3, 55 °C | – | rate constant succinimide to β-Asp | 0.324 h⁻¹
CSCC[C@@H]1NC(=O)[C@H](CCCCN)NC(=O)[C@H]([C@@H](C)O)NC(=O)[C@H](CCCCN)NC(=O)[C@H](CC(C)C)NC(=O)[C@H](CCCCN)NC(=O)[C@H](CCCNC(=N)N)NC(=O)[C@@H]2CSSC[C@@H]3NC(=O)[C@@H]4CCCN4C(=O)[C@H](C(C)C)NC(=O)[C@H](CCC(N)=O)NC(=O)[C@H](CCC(N)=O)NC(=O)CNC(=O)[C@H](CC(C)C)NC(=O)[C@@H]4CSSC[C@H](NC(=O)[C@H]([C@@H](C)O)NC(=O)[C@H](C)NC(=O)[C@H](CSSC[C@@H](C(=O)N[C@@H](CO)C(=O)N[C@@H](CCCNC(=N)N)C(=O)N[C@H](C(N)=O)[C@@H](C)O)NC(=O)[C@@H]5CCCN5C(=O)[C@H](CC(N)=O)NC1=O)NC(=O)[C@@H]1CCCN1C(=O)[C@H](CC(=O)O)NC(=O)[C@H](CSSC[C@H](NC(=O)[C@H](CCCNC(=N)N)NC(=O)[C@H](CCCNC(=N)N)NC(=O)[C@H](CCCCN)NC(=O)[C@@H](N)CCCCN)C(=O)N[C@@H](C(C)C)C(=O)N[C@@H](CCCNC(=N)N)C(=O)N[C@@H](CC(C)C)C(=O)N[C@@H](Cc1c[nH]cn1)C(=O)N[C@@H](CCC(=O)O)C(=O)N[C@@H](CO)C(=O)N4)NC3=O)C(=O)N[C@@H](Cc1ccc(O)cc1)C(=O)N[C@H]1CSSC[C@H](NC(=O)[C@H](Cc3ccccc3)NC(=O)[C@H](C)NC(=O)[C@H](CC(N)=O)NC(=O)[C@H](Cc3ccccc3)NC(=O)[C@H](Cc3ccccc3)NC(=O)[C@H](CCCNC(=N)N)NC1=O)C(=O)N[C@@H](Cc1ccc(O)cc1)C(=O)N2 | – | Long-Evans rat, male | intracerebroventricular, 1.0 nmol in 1.0 µL, 24 h, non-cumulative | reference: saline | food intake | 118 ± 8.3 % above saline
O=[N+]([O-])c1ccc2[nH]c(-c3ccco3)nc2c1 | ABTS scavenging, absorbance | – | – | – | IC50 | 1.59 µM
CN(C)c1ccc(-c2oc3ccccc3c(=O)c2OCc2ccccc2)cc1 | – | diabetic rat | 5 mg/kg, day 1, p-nitrophenyl β-glucoside induced | – | blood glucose | 407 ± 4.12 mg/dL
Cc1nc(C)c(C=[N+]([O-])C(C)(C)C)nc1C | Western blot, item: Akt phospho-Ser473 | mouse, MPTP model | 90 mg/kg | – | protein level increase | 54.4%
COc1ccc(C2CC(c3ccc(C)cc3)=Nc3ccccc3S2)cc1 (stereo not shown) | – | Wistar rat, STZ-induced diabetes, serum | 10 mg/kg, 28 days | – | alkaline phosphatase | 207 IU/L
COc1c2c(cc3oc(COC4OC(CO)C(O)C(O)C4O)cc(=O)c13)OC(C(C)(C)O)C2 (stereo not shown) | analgesia | mouse | oral, 4 mg/kg, 0.5 h | – | hot plate latency | 11.7 ± 1.31 s
CC[C@H](C)[C@H](NC(=O)[C@H](CCC(=O)O)NC(=O)[C@H](C)NC(=O)[C@@H](NC(=O)[C@H](Cc1c[nH]cn1)NC(=O)[C@@H](NC(=O)[C@H](CCC(=O)O)NC(=O)[C@H](C)NC(=O)[C@@H](NC(=O)[C@H](CC(C)C)NC(=O)[C@H](CCCCN)NC(=O)[C@H](Cc1c[nH]cn1)NC(=O)[C@H](CC(C)C)NC(=O)[C@H](Cc1ccccc1)NC(=O)[C@H](C)NC(=O)[C@H](CCCNC(=N)N)NC(=O)[C@H](CCCNC(=N)N)NC(=O)[C@H](CCCNC(=N)N)NC(=O)[C@H](C)NC(=O)[C@H](CC(=O)O)NC(=O)[C@H](CCC(N)=O)NC(=O)[C@@H](NC(=O)[C@H](Cc1c[nH]c2ccccc12)NC(=O)[C@H](CCCCN)NC(=O)[C@H](C)NC(=O)[C@H](CCCNC(=N)N)NC(=O)[C@H](CCC(N)=O)NC(=O)[C@H](Cc1c[nH]cn1)NC(=O)[C@H](CCSC)NC(=O)[C@H](CC(C)C)NC(=O)[C@H](CCC(N)=O)NC(=O)[C@@H](NC(=O)[C@H](CCC(=O)O)NC(=O)[C@H](C)NC(=O)[C@@H](NC(=O)[C@H](C)N)C(C)C)[C@@H](C)CC)[C@@H](C)CC)[C@@H](C)CC)[C@@H](C)CC)[C@@H](C)O)C(=O)O | – | cynomolgus monkey, serum | subcutaneous, 0.5 and 1.0 nmol/kg, 24 h | – | peak serum calcium | ~13 mg/dL
COc1cc2c(cc1OC)-c1cc3ccc(OC)c(OC)c3c[n+]1CC2 | – | rat, STZ-induced diabetic, serum | oral, 12 mg/kg, day 28 | – | creatinine | 1.09 ± 0.07 mg/dL
Cc1ccc(-c2oc3ccccc3c(=O)c2OCc2ccccc2)cc1 | – | diabetic rat | 7.5 mg/kg, day 1, p-nitrophenyl β-glucoside induced | – | blood glucose | 401 ± 5.12 mg/dL
CCCOC(=O)Cc1c(C)n(C(=O)c2ccc(Cl)cc2)c2ccc(OC)cc12 | hot plate test | BALB/c mice | 100 mg/kg, 30 min | – | latency of nociceptive response | 17.4 ± 0.86 s
CCc1nnc(NS(=O)(=O)c2ccc(NC(=S)NC(=O)/C=C/c3ccc(F)cc3)cc2)s1 | immunostaining | athymic nude mouse, BE(2)-C xenograft, tumour | ip, 20 mg/kg daily, 3 weeks | – | cleaved PARP level | increased
CC(=O)Nc1ccc(OC(=O)CCC(=O)[O][Pt-2]23([O]C(=O)CCC(=O)Oc4ccc(NC(C)=O)cc4)([NH2+][C@@H]4CCCC[C@H]4[NH2+]2)[O]C(=O)C(=O)[O]3)cc1 | – | BALB/c mouse, 4T1 tumour, spleen | dose not given | – | CD3+CD4+ T cells | 25.7%
COc1ccc(S(=O)(=O)N2CCc3ccccc3C2)cc1N1CCN(C(=O)c2ccc(F)cc2C(F)(F)F)CC1 | – | 6-OHDA lesioned rats | 0.3 µg/24 h, 12 weeks post lesion | reference: intact side | DAT-ir cells in SNpc | 13.2 ± 2.1%
CC[C@@H](C)N([11CH3])C(=O)c1nc(-c2ccccc2Cl)c2ccccc2n1 | PET from VT/fP | rhesus monkey, cerebellum | dose not given | – | TSPO specific binding | 88%
O=c1c(OCc2ccccc2)c(-c2cccc([N+](=O)[O-])c2)oc2ccccc12 | – | diabetic rat | 5 mg/kg, day 14, p-nitrophenyl β-glucoside induced | – | blood glucose | 236 ± 4.68 mg/dL
CC(C)CN(CC(C)C)C(=O)/C=C/C=C/c1ccc2c(c1)OCO2 | open field | C57BL/6N mice | ip, 30 mg/kg, 30 min before test, 10 min test | – | total distance travelled | 28.6 ± 2.5 m
O=C1/C(=C/c2ccc(O)cc2)Oc2c1c(O)cc1oc3cc(O)c(O)cc3c21 | DPPH scavenging, absorbance | – | – | – | EC50 | 320 µM

Structure (SMILES) | test | system | setting | scale | measurement | value
O=c1c(OCc2ccccc2)c(-c2ccc([N+](=O)[O-])cc2)oc2ccccc12 | – | diabetic rat | 5 mg/kg, day 21, p-nitrophenyl β-glucoside induced | – | blood glucose | 189 ± 4.65 mg/dL
CC[C@H]1[C@@H](O)[C@@H]2[C@H](CC[C@]3(C)[C@@H]([C@H](C)CCOS(=O)(=O)[O-])CC[C@@H]23)[C@@]2(C)CC[C@@H](O)C[C@@H]12.[Na+] | histology | ob/ob NASH mouse model, liver | oral, 10 mg/kg once daily, 8 weeks, scale 0 to 3 | direction not given | steatosis score | 1.8 ± 0.2
CCCCCCCCC=CCCCCCCCC(=O)OCC1OC(n2ccc(N)nc2=O)C(F)(F)C1O (stereo not shown) | – | female nude mouse, colon xenograft, patient-derived colon tumour | oral, 100 mg/kg, dosed days 1 and 8 | reference: saline control | optimal tumour volume T/C | 4%
C[C@H](NC(=O)COC(=O)[C@H](C)NC(=O)CO)C(=O)O | – | water | pH 7, 25 °C | – | depolymerization rate constant | 1.11 h⁻¹
C=C(c1ncc(C(=O)O)cn1)c1cc2c(cc1C)C(C)(C)CCC2(C)C | RNA sequencing, item: Nmb | rat, brain | dose not given, 24 h | reference: vehicle | log2 fold change | -0.38
COc1ccc(C2CC(c3ccc(C)cc3)=Nc3ccccc3S2)cc1OC (stereo not shown) | – | Wistar rat, STZ-induced diabetes, serum | 10 mg/kg, 28 days | – | triglycerides | 140 mg/dL
CC(=O)[O-].O.O.O.O.[Ni+2].[O-]c1ccc(Br)cc1C=NCCN1CCOCC1 | nitric oxide scavenging | – | 240 µM | – | inhibition | 56.5%
COc1cc(CN2CCN(c3ccccc3Cl)CC2)c2cc3[n+](cc2c1O)CCc1cc2c(cc1-3)OCO2 | ABTS scavenging, absorbance | – | 10 min | – | IC50 | 6.33 µg/mL
Cc1cc(Nc2cc3ncccc3c(N[C@@H]3C[C@H]4CC[C@@H](C3)N4CCC#N)n2)n[nH]1 | – | moderate-severe ulcerative colitis patients | 20 mg, day 28 | reference: patients | clinical response | 20%
CSCC[C@@H]1NC(=O)[C@H](C)NC(=O)[C@H]([C@@H](C)O)NC(=O)CNC(=O)[C@H](CC(C)C)NC(=O)[C@H](CCC(N)=O)NC(=O)[C@H](CCCNC(=N)N)NC(=O)[C@@H]2CSSC[C@@H]3NC(=O)[C@@H]4CCCN4C(=O)[C@H](C(C)C)NC(=O)[C@H](CCC(N)=O)NC(=O)[C@H](CCC(N)=O)NC(=O)CNC(=O)[C@H](CC(C)C)NC(=O)[C@@H]4CSSC[C@H](NC(=O)[C@H]([C@@H](C)O)NC(=O)[C@H](C)NC(=O)[C@H](CSSC[C@@H](C(=O)N[C@@H](CO)C(=O)N[C@@H](CCC(N)=O)C(=O)N[C@H](C(N)=O)[C@@H](C)O)NC(=O)[C@@H]5CCCN5C(=O)[C@H](CC(N)=O)NC1=O)NC(=O)[C@@H]1CCCN1C(=O)[C@H](CC(=O)O)NC(=O)[C@H](CSSC[C@H](NC(=O)[C@H](CCCNC(=N)N)NC(=O)[C@H](CCCNC(=N)N)NC(=O)[C@H](CO)NC(=O)[C@@H](N)CO)C(=O)N[C@@H](C(C)C)C(=O)N[C@@H](CCCNC(=N)N)C(=O)N[C@@H](CC(C)C)C(=O)N[C@@H](Cc1c[nH]cn1)C(=O)N[C@@H](CCC(=O)O)C(=O)N[C@@H](CO)C(=O)N4)NC3=O)C(=O)N[C@@H](Cc1ccc(O)cc1)C(=O)N[C@H]1CSSC[C@H](NC(=O)[C@H](Cc3ccccc3)NC(=O)[C@H](C)NC(=O)[C@H](CC(N)=O)NC(=O)[C@H](Cc3ccccc3)NC(=O)[C@H](Cc3ccccc3)NC(=O)[C@H](CCCNC(=N)N)NC1=O)C(=O)N[C@@H](Cc1ccc(O)cc1)C(=O)N2 | – | male Long-Evans rats | intracerebroventricular, 1.0 nmol, day 5 | reference: saline | food intake | 14.1 ± 2.3 % above saline
O=C1c2c(cc(O)c(-c3ccc(O)c(O)c3)c2O)OC1Cc1ccc(O)c(O)c1 (stereo not shown) | DPPH scavenging, absorbance | – | – | – | EC50 | 40 µM
CC/C=C\C/C=C\C/C=C\C/C=C\C/C=C\CCCCOC(CC)C(=O)O (stereo not shown) | oral glucose tolerance test | ob/ob mice | dose not given, 5 weeks, 4 h fasted, 0-120 min, together with: glucose 2 g/kg po | – | reduction of glucose AUC | 60%
O=c1c(OCc2ccccc2)c(-c2ccc(Cl)cc2)oc2ccccc12 | – | diabetic rat | 7.5 mg/kg, day 14, p-nitrophenyl β-glucoside induced | – | blood glucose | 236 ± 4.97 mg/dL
O=C1/C(=C/c2ccccc2)Oc2c1c(O)cc1oc3cc(O)c(O)cc3c21 | DPPH scavenging, absorbance | – | – | – | EC50 | > 20000 µM
COc1ccc(-c2oc3ccccc3c(=O)c2OCc2ccccc2)cc1 | – | diabetic rat | 7.5 mg/kg, day 28, p-nitrophenyl β-glucoside induced | – | blood glucose | 139 ± 5.61 mg/dL
CCOc1ccc(C[C@@H]2NC(=O)[C@@H](N)CSSC[C@@H](C(=O)N3CCC[C@H]3C(=O)N[C@@H](CC(C)C)C(=O)NCC(N)=O)NC(=O)[C@H](CC(N)=O)NC(=O)[C@H](CCC(N)=O)NC(=O)[C@H]([C@@H](C)CC)NC2=O)cc1 | antagonist | Bufo marinus urinary bladder | together with: oxytocin | – | pA2 | 6.85
CCOP(=O)(CC(=O)Nc1ccc(S(=O)(=O)N(CC(N)=O)c2ccc(N(CC(N)=O)S(=O)(=O)c3ccc(OC)cc3)c3ccccc23)cc1)OCC | open field test | APP/PS1 mice | intragastric, 40 mg/kg once daily, 60 days, 5 min test, lentivirus intracerebroventricular | – | total distance | no effect
Cc1cc2nc(-c3cc4ccccc4nc3Cl)[nH]c2cc1C | – | mouse HepG2 xenograft | 10 mg/kg, day 41 | – | T/C tumor increment | 31.3%

A few entries again:
Structure (SMILES) | test | system | setting | scale | measurement | value
COc1ccc(C2CC(c3ccc(C)cc3)=Nc3ccccc3S2)cc1OC (stereo not shown) | – | Wistar rat, STZ-induced diabetes, serum | 10 mg/kg, 28 days | – | triglycerides | 140 mg/dL
CC(=O)[O-].O.O.O.O.[Ni+2].[O-]c1ccc(Br)cc1C=NCCN1CCOCC1 | nitric oxide scavenging | – | 240 µM | – | inhibition | 56.5%
COc1cc(CN2CCN(c3ccccc3Cl)CC2)c2cc3[n+](cc2c1O)CCc1cc2c(cc1-3)OCO2 | ABTS scavenging, absorbance | – | 10 min | – | IC50 | 6.33 µg/mL
Cc1cc(Nc2cc3ncccc3c(N[C@@H]3C[C@H]4CC[C@@H](C3)N4CCC#N)n2)n[nH]1 | – | moderate-severe ulcerative colitis patients | 20 mg, day 28 | reference: patients | clinical response | 20%
